Values quoted from earlier work as cited in several papers.
Compare with care: the assays were run in different laboratories. Numbers after ± are the reported error. ≈ marks a conversion by molar mass, not a printed value.

SMILES | target or system | test | system | setting | scale | measurement | result
Cc1nc(C(C)C(=O)Nc2ccc(-c3ccccc3)cc2)sc1S(N)(=O)=O (stereo not shown) | herpes simplex virus 1 | viral replication |  |  |  | EC50 | 50 nM
COCCOCCOCCOCCC(=O)NCc1cc(CNC(=O)CCOCCOCCOCCOC)cc(-c2cc3cc4nc(c(OC)c5[nH]c(cc6nc(cc2[nH]3)CC6(C)C)cc5-c2cc(CNC(=O)CCOCCOCCOCCOC)cc(CNC(=O)CCOCCOCCOCCOC)c2)CC4(C)C)c1 |  |  | PBS | room temperature |  | kf^−1 | 17 ns
COC1=CC(c2ccc[nH]2)=NC1=Cc1[nH]c(Cc2ccc(Cl)cc2)cc1Cc1ccc(Cl)cc1 | Plasmodium yoelii |  | multidrug-resistant, mouse | 5 mg/kg/day |  | parasite reduction | 92%
CCOP(=O)(CCCn1cc(Cn2c(=O)n(C(=O)c3ccccc3)c(=O)c3ccccc32)nn1)OCC | human alphaherpesvirus 1 | viral replication |  |  |  | EC50 | 17000 nM
CC1CC(C)(C)c2cccc(NC(=O)c3nccnc3C(F)(F)F)c21 (stereo not shown) | Blumeria graminis |  | barley |  |  | EC80 | 1 to 10 mg a.i./L
CNS(=O)(=O)c1sc(N(C)C(=O)Cc2ccc(-c3ccccc3)cc2)nc1C | herpes simplex virus 1 | viral replication |  |  |  | EC50 | 0.5 nM
N=C(N)NCCC[C@H](NC(=O)[C@H](Cc1c[nH]c2ccccc12)NC(=O)[C@H](CCC(N)=O)NC(=O)[C@H](Cc1c[nH]c2ccccc12)NC(=O)[C@H](CCCNC(=N)N)NC(=O)[C@@H](N)CCCNC(=N)N)C(=O)NCCCC[C@H](NC(=O)[C@H](CCCNC(=N)N)NC(=O)[C@H](Cc1c[nH]c2ccccc12)NC(=O)[C@H](CCC(N)=O)NC(=O)[C@H](Cc1c[nH]c2ccccc12)NC(=O)[C@H](CCCNC(=N)N)NC(=O)[C@@H](N)CCCNC(=N)N)C(=O)NCCCCCC(N)=O | Escherichia coli |  | ATCC 11775 |  |  | MBC | 22 µM (≈ 48.3 µg/mL)
Cc1nc(N(C)C(=O)Cc2ccc(-c3ccccn3)cc2)sc1S(N)(=O)=O | herpes simplex virus 2 | viral replication |  |  |  | EC50 | 16 nM
CN1C(=O)[C@@H](Cc2ccc(O)cc2)NC(=O)CNC(=O)[C@H](Cc2ccc3ccccc3c2)NC(=O)[C@H](CCCNC(=N)N)NC(=O)[C@H]1CCCNC(=O)c1ccc(CNC(=O)CN2CCN(CC(=O)O)CCN(CC(=O)O)CCN(CC(=O)O)CC2)cc1 [gallium-68 labelled] |  | PET-based dosimetry | human patients, gall bladder wall |  |  | absorbed dose coefficient | 0.0146 mGy/MBq
NC(=O)c1c(F)ccc(OCc2nc3cc(Cl)cnc3s2)c1F | Staphylococcus aureus |  | Smith, mouse, infection | intravenous, single dose |  | ED50 | 10 mg/kg
C/C=C/CNC(=N)NCCCCCCCCN1CCCCCCCCNC(=N)NC1=O | Candida albicans |  |  |  |  | MIC50 | 2.5 µg/mL (≈ 5.74 µM)
COc1ccc(-c2cc(-c3ccc(C)cc3)nc(N)c2C#N)cc1 | Escherichia coli |  |  | concentration not given |  | inhibition zone diameter | 22 mm
CCN(CC)CC#CCNc1ccnc2cc(Cl)ccc12 | Plasmodium berghei |  | mouse, infected | dose not given, 11 days post infection |  | parasitaemia reduction | ~100%
CSCC[C@H](NC(=O)[C@H](CCCNC(=N)N)NC(=O)[C@H](Cc1c[nH]c2ccccc12)NC(=O)[C@H](CCC(N)=O)NC(=O)[C@H](Cc1c[nH]c2ccccc12)NC(=O)[C@H](CCCNC(=N)N)NC(=O)[C@@H](N)CCCNC(=N)N)C(=O)N[C@@H](CCCCN)C(=O)N[C@@H](CCCCN)C(=O)N[C@@H](CC(C)C)C(=O)NCC(=O)NCCCC[C@H](NC(=O)CNC(=O)[C@H](CC(C)C)NC(=O)[C@H](CCCCN)NC(=O)[C@H](CCCCN)NC(=O)[C@H](CCSC)NC(=O)[C@H](CCCNC(=N)N)NC(=O)[C@H](Cc1c[nH]c2ccccc12)NC(=O)[C@H](CCC(N)=O)NC(=O)[C@H](Cc1c[nH]c2ccccc12)NC(=O)[C@H](CCCNC(=N)N)NC(=O)[C@@H](N)CCCNC(=N)N)C(=O)NCCCCCC(=O)N[C@@H](CSSC[C@H](NC(=O)CCCCCNC(=O)[C@H](CCCCNC(=O)CNC(=O)[C@H](CC(C)C)NC(=O)[C@H](CCCCN)NC(=O)[C@H](CCCCN)NC(=O)[C@H](CCSC)NC(=O)[C@H](CCCNC(=N)N)NC(=O)[C@H](Cc1c[nH]c2ccccc12)NC(=O)[C@H](CCC(N)=O)NC(=O)[C@H](Cc1c[nH]c2ccccc12)NC(=O)[C@H](CCCNC(=N)N)NC(=O)[C@@H](N)CCCNC(=N)N)NC(=O)CNC(=O)[C@H](CC(C)C)NC(=O)[C@H](CCCCN)NC(=O)[C@H](CCCCN)NC(=O)[C@H](CCSC)NC(=O)[C@H](CCCNC(=N)N)NC(=O)[C@H](Cc1c[nH]c2ccccc12)NC(=O)[C@H](CCC(N)=O)NC(=O)[C@H](Cc1c[nH]c2ccccc12)NC(=O)[C@H](CCCNC(=N)N)NC(=O)[C@@H](N)CCCNC(=N)N)C(N)=O)C(N)=O | Escherichia coli |  | ATCC 11775 |  |  | MBC | 15 µM (≈ 102 µg/mL)
CC1=CCC23OC2(C)CCC2C(CN(C)C)C(=O)OC2C13.Cl (stereo not shown) | sarcoma 37 tumour model |  | host not given | intraperitoneal and intratumoral, concentration not given |  | tumour growth inhibition | 86 to 90%
O=C(Nc1ccccc1-c1cccc(F)c1)c1nccnc1C(F)(F)F | Blumeria graminis |  | barley |  |  | EC80 | 2 to 10 mg a.i./L
CCN(CC)c1ccc2nc3c4ccccc4/c(=N/c4ccncc4)cc-3oc2c1 | Plasmodium berghei |  | ANKA, mouse | oral, 3 × 30 mg/kg |  | mice cured | 80%
Cc1ccc(C(=O)Sc2cccccc2=O)cc1 | Cryptococcus neoformans |  |  |  |  | MIC80 | 0.25 µM (≈ 0.0641 µg/mL)
Cc1ccc(/N=N/c2c(C)c(C(=O)Nc3ccccc3)c(N)n(-c3ccccc3)c2=O)cc1 | Candida albicans |  |  |  |  | MIC | 7.81 µg/mL (≈ 17.9 µM)
CCCCSC[C@H]1CN(Cc2c[nH]c3c(N)ncnc23)C[C@@H]1O | Helicobacter pylori | growth |  |  |  | IC90 | < 0.008 µg/mL
COc1ccccc1-c1ccc(CC(=O)N(C)c2nc(C)c(S(N)(=O)=O)s2)cc1 | herpes simplex virus 1 | viral replication |  |  |  | EC50 | 2 nM
Cc1cccc(C)c1NC1=C(O)C(=O)c2ccccc2C1=O | Plasmodium berghei |  | infected mice | dose not given, day 7 | baseline: untreated | parasitemia inhibition | 0%

SMILES | target or system | test | system | setting | scale | measurement | result
O=C(Nc1ccccc1-c1ccc(F)cc1)c1nccnc1C(F)(F)F | Botrytis cinerea |  | cucumber |  |  | EC80 | 2 to 10 mg a.i./L
C/C=C1\NC(=O)[C@H](Cc2ccccc2)NC(=O)[C@H](C(C)C)NC(=O)[C@H](Cc2c[nH]cn2)NC(=O)[C@H](CCC(N)=O)NC(=O)[C@H](Cc2c[nH]c3ccccc23)NC(=O)[C@H]2CSC[C@@H](C(=O)N[C@@H](CO)C(=O)O)NC(=O)[C@H](CSC[C@H]3NC(=O)[C@H]([C@@H](C)CC)NC(=O)[C@H](NC(=O)[C@H](Cc4c[nH]cn4)NC(=O)[C@@H](NC(=O)[C@@H](NC(=O)CNC(=O)[C@H](CO)NC(=O)CNC(=O)CNC(=O)[C@@H](N)CCCCN)C(C)C)[C@@H](C)CC)[C@H](C)SC[C@H](NC(=O)[C@H](CCC(=O)O)NC(=O)[C@H](Cc4c[nH]cn4)NC3=O)C(=O)N[C@@H](CCCNC(=N)N)C(=O)N[C@@H](CCSC)C(=O)N[C@@H](CC(N)=O)C(=O)N2)NC1=O | Lactococcus lactis subsp. cremoris | cell growth | HP |  |  | IC50 | 428 ± 21 nM
Cc1ncccc1C(=O)Nc1cccc2c1C(C)CC2(C)C (stereo not shown) | Botrytis cinerea |  | cucumber |  |  | EC80 | 20 to 100 mg a.i./L
COc1cc([C@@H]2c3cc4c(cc3[C@@H](C=C(C)C)[C@H]3COC(=O)[C@@H]23)OCO4)cc(OC)c1OC | Leishmania infantum | tubulin polymerization inhibition |  | concentration not given |  | antiparasitic activity | active
O=C(Nc1ccccc1-c1ccc(Cl)c(F)c1)c1nccnc1C(F)(F)F | Puccinia triticina |  | wheat |  |  | EC80 | 2 to 10 mg a.i./L
CN[C@H](CC(C)C)C(=O)N[C@H]1C(=O)N[C@@H](CC(N)=O)C(=O)N[C@H]2C(=O)N[C@H]3C(=O)N[C@H](C(=O)N[C@H](C(=O)NCCCNC(=N)N)c4cc(O)cc(O)c4-c4cc3ccc4O)[C@H](O)c3ccc(c(Cl)c3)Oc3cc2cc(c3O[C@@H]2O[C@H](CO)[C@@H](O)[C@H](O)[C@H]2O[C@H]2C[C@](C)(N)[C@H](O)[C@H](C)O2)Oc2ccc(cc2Cl)[C@H]1O | Enterococcus |  | VanA vancomycin-resistant | concentration not given | baseline: vancomycin | activity improvement | ≤ 64 fold
C[C@@](CCc1ccc(-c2ccccc2)cc1)(C(=O)NO)S(C)(=O)=O | Enterobacter spp. |  |  |  |  | MIC90 | 4 µg/mL (≈ 11.5 µM)
O=C(Nc1ccccc1-c1ccc(F)cc1F)c1nccnc1C(F)(F)F | Botrytis cinerea |  | cucumber |  |  | EC80 | 2 to 10 mg a.i./L
Cc1nc(N(C)C(=O)Nc2ccc(N3CCOCC3)cc2)sc1S(=O)(=O)N(C)C | herpes simplex virus 2 | viral replication |  |  |  | EC50 | 1500 nM
O=c1c2cc([N+](=O)[O-])ccc2n(CCO)n1Cc1ccccc1 | Trypanosoma cruzi |  |  | concentration not given, epimastigotes |  | antiparasitic activity | active
COc1ccc(NC2=C(O)C(=O)c3ccccc3C2=O)cc1 | Plasmodium berghei |  | infected mice | dose not given, day 5 | baseline: untreated | parasitemia inhibition | 66.6%
CSCC[C@H](NC(=O)[C@H](CCCNC(=N)N)NC(=O)[C@H](Cc1c[nH]c2ccccc12)NC(=O)[C@H](CCC(N)=O)NC(=O)[C@H](Cc1c[nH]c2ccccc12)NC(=O)[C@H](CCCNC(=N)N)NC(=O)[C@@H](N)CCCNC(=N)N)C(=O)N[C@@H](CCCCN)C(=O)N[C@@H](CCCCN)C(=O)N[C@@H](CC(C)C)C(=O)NCC(=O)NCCCC[C@H](NC(=O)CNC(=O)[C@H](CC(C)C)NC(=O)[C@H](CCCCN)NC(=O)[C@H](CCCCN)NC(=O)[C@H](CCSC)NC(=O)[C@H](CCCNC(=N)N)NC(=O)[C@H](Cc1c[nH]c2ccccc12)NC(=O)[C@H](CCC(N)=O)NC(=O)[C@H](Cc1c[nH]c2ccccc12)NC(=O)[C@H](CCCNC(=N)N)NC(=O)[C@@H](N)CCCNC(=N)N)C(=O)NCCCCCC(N)=O | Escherichia coli |  | ATCC 11775 |  |  | MBC | 60 µM (≈ 199 µg/mL)
CC(=O)O[C@H]1C2=C(C(=O)C(OC(=O)c3ccccc3)=C(C(C)C)C2=O)[C@@]2(C)CCCC(C)(C)[C@@H]2[C@@H]1OC(=O)c1ccccc1 | MOLT-3 |  |  |  |  | GI50 | 5000 to 10000 nM
O=C(Nc1ccccc1-n1ncc2ccccc21)c1cccnc1Cl | Rhizoctonia solani | fungal growth | in vitro | 50 mg/L |  | inhibition | 75%
NCCCn1c2ccc([N+](=O)[O-])cc2c(=O)n1Cc1ccccc1 | Trypanosoma cruzi |  |  | concentration not given, epimastigotes |  | antiparasitic activity | active
C[C@@](CCn1ccc(-c2ccccc2)cc1=O)(C(=O)NO)S(C)(=O)=O | Pseudomonas aeruginosa |  |  | 138 clinical isolates |  | MIC90 | 2 µg/mL (≈ 5.49 µM)
O=C(Nc1ccccc1-c1ccc(C(F)(F)F)c(F)c1)c1nccnc1C(F)(F)F | Botrytis cinerea |  | cucumber |  |  | EC80 | 5 to 20 mg a.i./L
CCCCCCCCCCCCCCCCOCCOP1(=O)COC(Cn2cnc(N)nc2=O)CO1 (stereo not shown) | varicella zoster virus |  |  |  | baseline: cytotoxicity over antiviral activity | selectivity index | ≥ 5800
Cc1cc(C)n(N)c(=O)c1C#N | Pseudomonas aeruginosa |  |  | concentration not given |  | inhibition zone diameter | 21.4 mm
NS(=O)(=O)c1ccc(CCN/C=C2\C(=O)Oc3ccccc3C2=O)cc1 | Shigella flexneri |  |  | concentration not given |  | inhibition zone diameter | 9 mm
CSc1nn(CC(=O)Nc2ccc(F)c(F)c2)c(N)c1-c1nc(-c2ccc3c(c2)OCO3)no1 | Klebsiella pneumoniae | PubChem screen |  | concentration not given |  | activity | inactive

For quick reference, copied from above:
SMILES | target or system | test | system | setting | scale | measurement | result
Cc1nc(C(C)C(=O)Nc2ccc(-c3ccccc3)cc2)sc1S(N)(=O)=O (stereo not shown) | herpes simplex virus 1 | viral replication |  |  |  | EC50 | 50 nM
C[C@@](CCc1ccc(-c2ccccc2)cc1)(C(=O)NO)S(C)(=O)=O | Enterobacter spp. |  |  |  |  | MIC90 | 4 µg/mL (≈ 11.5 µM)
Cc1ncccc1C(=O)Nc1cccc2c1C(C)CC2(C)C (stereo not shown) | Botrytis cinerea |  | cucumber |  |  | EC80 | 20 to 100 mg a.i./L
CSc1nn(CC(=O)Nc2ccc(F)c(F)c2)c(N)c1-c1nc(-c2ccc3c(c2)OCO3)no1 | Klebsiella pneumoniae | PubChem screen |  | concentration not given |  | activity | inactive
Cc1cc(C)n(N)c(=O)c1C#N | Pseudomonas aeruginosa |  |  | concentration not given |  | inhibition zone diameter | 21.4 mm
COc1ccc(NC2=C(O)C(=O)c3ccccc3C2=O)cc1 | Plasmodium berghei |  | infected mice | dose not given, day 5 | baseline: untreated | parasitemia inhibition | 66.6%
